Experimental data from different studies.
Numbered parts are unrelated; each lists some results of a single study.

Block 1
Target: Interferon regulatory factor 5, full length, phosphomimetic (IRF5, Homo sapiens, UniProt Q13568-2, residues 1-514, K96S/S451D/S453D/S456D/S462D)
Technique: protein-binding microarray
Form: double-stranded DNA, one strand shown
Medium: in vitro
Concentration: 250 nM
Setting: 60-bp whole probe
Together with: salmon DNA 0.4 mg/ml
Reference: random background probes
Reading: higher = stronger binding
Endpoint: log fluorescence
Oligonucleotide = GCCTAGCACTTAGATATCAGACTGGCTTAGTGCTAGGTCTTGATTCGCTTGACGCTGCTG; value = 0.236 z-score
Oligonucleotide = GCCTAGCACTTAGATATTAGACTGGATTAGTGCTAGGTCTTGATTCGCTTGACGCTGCTG; value = 0.137 z-score
Oligonucleotide = GCCTAGCACTTAGATTTCGGGTATCAATTAGTGCTAGTCTTGATTCGCTTGACGCTGCTG; value = 6.25 z-score
Oligonucleotide = GCCTAGCACTTAGGACTGGGGGTTCGGTTAGTGCTAGTCTTGATTCGCTTGACGCTGCTG; value = 0.497 z-score

Block 2
Target: Sal-like protein 4, full length isoform A (SALL4, Homo sapiens, UniProt Q9UJQ4, residues 1-1053)
UniProt Q9UJQ4, sequence (whole entry, looked up): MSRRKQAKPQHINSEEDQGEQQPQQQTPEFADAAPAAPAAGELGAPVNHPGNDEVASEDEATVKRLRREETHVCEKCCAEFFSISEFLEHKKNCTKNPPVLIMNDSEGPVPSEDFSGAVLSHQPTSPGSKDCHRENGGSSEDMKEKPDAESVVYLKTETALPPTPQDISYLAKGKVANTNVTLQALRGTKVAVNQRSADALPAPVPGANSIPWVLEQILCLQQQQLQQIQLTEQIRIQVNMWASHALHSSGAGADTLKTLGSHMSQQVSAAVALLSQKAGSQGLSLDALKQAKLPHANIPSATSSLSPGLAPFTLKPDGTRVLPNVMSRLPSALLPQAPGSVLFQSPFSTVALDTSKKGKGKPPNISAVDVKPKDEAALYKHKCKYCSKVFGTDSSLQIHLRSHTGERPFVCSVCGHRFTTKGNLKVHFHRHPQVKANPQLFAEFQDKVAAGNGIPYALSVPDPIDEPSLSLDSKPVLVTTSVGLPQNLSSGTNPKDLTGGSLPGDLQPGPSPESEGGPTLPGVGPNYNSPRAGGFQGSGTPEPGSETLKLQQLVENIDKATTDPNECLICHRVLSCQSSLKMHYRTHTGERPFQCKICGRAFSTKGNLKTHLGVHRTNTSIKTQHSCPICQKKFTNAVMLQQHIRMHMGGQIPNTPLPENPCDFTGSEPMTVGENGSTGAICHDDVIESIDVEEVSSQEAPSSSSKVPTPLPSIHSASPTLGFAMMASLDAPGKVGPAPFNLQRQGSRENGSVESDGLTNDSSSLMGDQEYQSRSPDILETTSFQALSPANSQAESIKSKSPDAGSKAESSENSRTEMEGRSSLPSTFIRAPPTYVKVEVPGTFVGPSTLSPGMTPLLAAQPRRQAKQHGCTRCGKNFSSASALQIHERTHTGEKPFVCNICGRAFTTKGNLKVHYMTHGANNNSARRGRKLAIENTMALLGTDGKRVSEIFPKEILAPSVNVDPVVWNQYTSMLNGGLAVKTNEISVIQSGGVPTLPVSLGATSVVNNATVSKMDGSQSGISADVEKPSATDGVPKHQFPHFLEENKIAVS
Technique: universal PBM
Form: double-stranded DNA, one strand shown
Medium: in vitro
Concentration: 600 nM
Setting: 8-mer, flanks averaged, mean of replicates
Reading: higher = stronger binding
Endpoint: E-score
Oligonucleotide = ACGTTTTA; value = 0.262
Oligonucleotide = ATGTCAAA; value = 0.286
Oligonucleotide = GCTCGTGA; value = -0.163
Oligonucleotide = AGATACCA; value = 0.154

Block 3
Target: Histone acetyltransferase KAT6A, both winged helices, GST fusion (KAT6A, Homo sapiens, UniProt Q92794, residues 1-181)
Technique: protein binding microarray
Form: double-stranded DNA, one strand shown
Medium: in vitro
Concentration: not given
Setting: 8-mer, flanks averaged, mean of 2 arrays, mostly near background
Reference: not given
Reading: higher = stronger binding
Endpoint: E-score
Target sequence (chain): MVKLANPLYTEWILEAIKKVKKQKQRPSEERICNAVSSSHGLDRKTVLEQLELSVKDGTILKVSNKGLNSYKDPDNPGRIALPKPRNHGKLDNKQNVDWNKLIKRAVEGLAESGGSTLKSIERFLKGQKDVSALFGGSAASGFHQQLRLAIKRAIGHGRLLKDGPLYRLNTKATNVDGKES
Oligonucleotide = CGGACTAA; value = 0.17
Oligonucleotide = ACGTCCGG; value = 0.137
Oligonucleotide = TGGATACA; value = -0.0362

Other studies, line by line
Molecule = PhoQ, residues 284 288 289 292 302 303 NLSRDF; target = PhoP, residues 12 14 15 18 19 TTLRV (Escherichia coli, UniProt P23836); assay = Sort-seq, measured: YFP reporter; system = E. coli; setting = PhoQ-PhoP variant library, together with: 10 µM Mg2+; scale = reference: high Mg2+ state, higher = stronger signaling; endpoint = fold induction; value = 0.893

Some of these lines once more (block 1):
Oligonucleotide = GCCTAGCACTTAGATATCAGACTGGCTTAGTGCTAGGTCTTGATTCGCTTGACGCTGCTG; value = 0.236 z-score
Oligonucleotide = GCCTAGCACTTAGATATTAGACTGGATTAGTGCTAGGTCTTGATTCGCTTGACGCTGCTG; value = 0.137 z-score
